Published values from different studies.
Lines come from different studies, so protocols differ.

For Cn1c2cc([S+](C)[O-])sc2c2cnn(Cc3cccc(N)c3)c(=O)c21 (stereo not drawn), the Tmax was 0.25 h (male BALB/c mouse, plasma; oral, 10 mg/kg, single dose).
The Tmax of COc1cnc2cccc(N3CCc4c(cc(Cn5ccnc5)cc4-c4cn(C)nc4C(F)(F)F)C3=O)c2c1 is reported as 0.3 h (male CD-1 mouse, plasma; oral, 10 mg/kg).
For Cc1ncsc1-c1ccc(C(C)NC(=O)C2CC(O)CN2C(=O)C(NC(=O)CCCCCCCCCCN2CCCC(Nc3ncc(Cl)c(Nc4ccccc4S(=O)(=O)C(C)C)n3)C2)C(C)(C)C)cc1 (stereo not drawn), “log2 fold change” read -1.32 (22Rv1; RNA-seq, refers to: ZNF302 mRNA; concentration not given; relative to: DMSO).
The Tmax of Cc1cc(NC(=O)[C@H](O)c2cc(F)cc(F)c2)ccc1-c1cnc(N)c(C(=O)NC(C)C)c1 is reported as 1 h (female nude mouse, plasma; oral, 100 mg/kg, single dose).
COC1CN([C@H]2CC[C@H]([C@@]3(C)Oc4c(Cl)cc(C(=O)NCc5c(SC)cc(C)[nH]c5=O)c(C)c4O3)CC2)C1 — result for “log2 fold change”: 0.969 (RNA-seq, refers to: PROX1 mouse homolog; mouse, HT-1376 xenograft, whole blood; dose not given; relative to: vehicle).
The Tmax of C/C(N)=N/C(=N\S(=O)(=O)c1ccc(C(F)(F)F)cc1)N1C[C@H](c2ccccc2)C(c2ccc(Cl)cc2)=N1 is reported as 2 h (beagle dog, plasma; oral, 12 mg/kg).
Nc1ncc(-c2cc(-c3cnn(CC(F)(F)F)c3)ncc2F)nc1C(=O)NC1CNCC(F)C1 (stereo not drawn) has a remaining binding of 85% (TAOK2; KINOMEscan; 1 µM; relative to: DMSO control).
The Tmax of [2H]C([2H])([2H])NC(=O)c1ccc(N2C(=S)N(c3ccc(C#N)c(C(F)(F)F)c3)C(=O)C2(C)C)cc1F is reported as 1.35 h (male human, plasma; oral, 40 mg, single dose, fasted).
C=C(NC(=O)c1csc(-c2nc3c(cc2O)-c2nc(cs2)C(=O)NC(C(C)O)C(=O)NC(=C(C)OC)c2nc(cs2)C(=O)NC2c4nc(cs4)C(=O)NC(COC(=O)c4c5c6c(cccc6n4O)COC(=O)C(OC4CC(C)(O)C(N(C)C)C(C)O4)C2OC5)c2nc-3cs2)n1)C(N)=O (stereo not drawn) gave a Tmax of 0.08 h (ICR mice, Streptococcus pneumoniae ATCC 49169 infected, immunocompromised, blood; intravenous, 16 mg/kg/day once daily).
O=C(OC(C(F)(F)F)C(F)(F)F)N1CCC(CNS(=O)(=O)c2ccc(Cl)cc2)CC1 gave a Tmax of 4 h (male SCID mouse, brain; oral, 30 mg/kg).
With CC(C)C[C@H](NC(=O)[C@H](CCCN)NC(=O)CNC(=O)[C@@H](NC(=O)[C@H](C)NC(=O)[C@@H]1CSCSC[C@H](NC(=O)CC[C@H](N)C(=O)O)C(=O)N[C@@H](CC(N)=O)C(=O)N[C@@H]([C@@H](C)O)C(=O)N[C@@H](C)C(=O)N[C@@H]([C@@H](C)O)C(=O)N1)[C@@H](C)O)C(=O)N[C@@H](C)C(=O)N[C@@H](CCC(=O)O)C(=O)N[C@@](C)(Cc1ccccc1)C(=O)N[C@@H](CC(C)C)C(=O)N[C@H](C(=O)N[C@@H](CCCNC(=N)N)C(=O)N[C@@H](CO)C(=O)N[C@@H](CO)C(=O)N[C@@H](CC(N)=O)C(=O)N(C)[C@@H](CC(N)=O)C(=O)N[C@@H](Cc1ccccc1)C(=O)NCC(=O)N1CCC[C@H]1C(=O)N[C@@H](CCCCNC(=O)CC[C@H](NC(=O)CC[C@H](NC(=O)CCCCCCCCCCCCCCCCCCC(=O)O)C(=O)O)C(=O)O)C(=O)N[C@@H](CC(C)C)C(=O)N1CCC[C@H]1C(=O)N1CCC[C@H]1C(=O)N[C@H](C(=O)N[C@@H](CCC(=O)O)C(=O)N[C@H](C(=O)NCC(=O)N[C@@H](CO)C(=O)N[C@@H](CC(N)=O)C(=O)N[C@H](C(=O)N[C@@H](Cc1ccc(O)cc1)C(N)=O)[C@@H](C)O)C(C)C)[C@@H](C)O)C(C)C the Tmax was 84 h (human, plasma; subcutaneous, 1.2 mg, single dose, healthy volunteers).
Under “percent of control”, C=CC(=O)Nc1cccc(Cn2ncc3cnc(Nc4cnn(CCOC)c4)nc32)c1 is recorded as 100% (MST4 human; binding, KINOMEscan; 100 nM; lower = stronger binding).
